Published values gathered from unrelated publications.
Parts stem from different laboratories: compare values within a part only. Changes are numbered by the printed parent chain.

Sample 1
Target: ABI1, truncated, D143A, DHFR fusion (Arabidopsis thaliana)
Technique: DHFR PCA, deep sequencing
Matrix: yeast
Notes: methotrexate growth selection, single substitutions
With: (+)-ABA 4.8 µM
Reference: wild-type fitted maximum
Direction: higher = stronger binding
Parent: PYL1, truncated, DHFR fusion (Arabidopsis thaliana); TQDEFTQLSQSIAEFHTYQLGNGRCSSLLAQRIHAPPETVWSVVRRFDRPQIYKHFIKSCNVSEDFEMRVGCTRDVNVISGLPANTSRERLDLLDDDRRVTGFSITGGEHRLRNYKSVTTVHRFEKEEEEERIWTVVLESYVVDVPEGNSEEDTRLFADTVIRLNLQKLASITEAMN; partner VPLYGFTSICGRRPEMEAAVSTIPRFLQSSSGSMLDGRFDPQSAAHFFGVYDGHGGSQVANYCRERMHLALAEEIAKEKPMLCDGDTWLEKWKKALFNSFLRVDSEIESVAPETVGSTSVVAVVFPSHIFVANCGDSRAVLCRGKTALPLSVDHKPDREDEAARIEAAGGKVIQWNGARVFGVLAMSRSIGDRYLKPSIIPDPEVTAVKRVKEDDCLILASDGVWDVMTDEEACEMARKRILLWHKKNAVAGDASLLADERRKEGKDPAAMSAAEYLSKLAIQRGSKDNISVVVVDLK
Change	relative binding score
E64A	77.7%
L82N	7.18%
N61M	69.9%
I52A	71.5%
V136H	-5.96%
R155L	33.7%
F47T	9.76%
S87W	8.29%
A30H	66.7%
Y18C	24.6%
A13V	58.7%
S59F	19.9%
R99E	0.878%

Sample 2
Target: NFE2L2, bZIP domain (human)
Technique: DHFR protein complementation
Matrix: yeast
Notes: single substitutions, most at no-binding floor
Reference: wild-type JUN-FOS pair
Direction: higher = stronger binding
Parent: JUN, bZIP domain (human); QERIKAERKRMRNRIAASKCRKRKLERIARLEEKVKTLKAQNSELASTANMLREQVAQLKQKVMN; partner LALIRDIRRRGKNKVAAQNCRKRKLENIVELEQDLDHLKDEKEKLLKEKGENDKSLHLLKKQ
Change	binding fitness [natural log]
L31W	-1.36
R30L	-1.42
K36V	-1.28
L52H	-1.5
V56W	-1.53
K34Q	-1.51
V56Q	-1.49
T48I	-1.38
E54P	-1.46
I28H	-1.38
L38F	-1.48

Sample 3
Target: RING finger protein unkempt homolog, zinc fingers 1-6, GST-SBP tag (UNK, Homo sapiens, UniProt Q9C0B0, residues 30-357)
Technique: RNA Bind-n-Seq
Molecule type: RNA
Matrix: in vitro
Concentration: not given
Notes: RNA with constant flanks, human and mouse sites, ends assumed
Reference: input RNA pool
Direction: higher = stronger binding
Shared flanks, not repeated: GGGAGUUCUACAGUCCGACGAUC … CAACAGAGGAUUGAGCAUCA
Construct (chain): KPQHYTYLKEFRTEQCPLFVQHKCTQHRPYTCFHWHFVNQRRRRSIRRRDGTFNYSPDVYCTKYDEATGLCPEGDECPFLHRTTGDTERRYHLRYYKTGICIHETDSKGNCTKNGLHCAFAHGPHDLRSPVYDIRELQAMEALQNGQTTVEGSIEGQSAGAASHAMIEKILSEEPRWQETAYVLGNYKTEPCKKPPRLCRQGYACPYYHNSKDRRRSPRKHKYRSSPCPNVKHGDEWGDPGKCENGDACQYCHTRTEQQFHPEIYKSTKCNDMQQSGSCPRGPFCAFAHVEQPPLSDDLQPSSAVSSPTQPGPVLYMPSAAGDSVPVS
Sequence	bound/input enrichment [ratio]
AAACUAGGAUAUGCUGGAAAUACAGAACCACAGUUUAUCAUCCCUUCCUGUAUUGCUAUUAAGGAGUCAGCAAAAGUGGGUGAUCAAGCUCAAAGGAGGGUGAUGAAAGGUGUUGAUGAC	0.425
CUUGCUUUUUUGGUUCUCUACAAUUUCAUCAUUCCAAUUUCAUUAUAUGUGACAGUCGAAAUGCAGAAAUUUCUUGGAUCAUUUUUUAUUGGCUGGGAUCUUGAUCUGUAUCAUGAAGAA	0.207
AUCAGGAUUUUUCUGGCACCAAGUUUAAUUCUUCUUCGUACUUCUGGUAGUGACAGAUCUGCAGGACAGAUUUAUCUGUUGAAUGCUCUUGGGCAGGAAAACCAUGUAAAACCUCUGGAA	0.129
AGCUUACUGUAUUAGUCAUUUUUAGCCCAUAAUUAAAACAUGAUCACUUUUACACAGGUGUAGUAUGGUGCAUUUCAUUCCUUAUUUAUAAAUUAACUGAAAUUACAGUUUGCUAUAAUA	14.2
GAAGCUACAUACCCAAAUACAUAUAUUUUUGACUUAUUUGGAGGUGUUGAUCUUCUUGUAGAAAUUCUUAUGAGGCCUACCAUCUCUAUCCGGGGACAGAAACUAAAAAUAAGUGACGAG	0.27
AAGAGGAAGCUAAUUGUUGACAGUGUCAAAGAGUUGGAUAGCAAGACAAUUAGAGCCCAACUUAGUGAUUAUUCAGAUAUUGUUACUACUUUGGAUCUGGCACCGCCCACCAAGAAAUUG	0.569
GAAGCAGAUAAGUGGAGCACGUUGAGCGCCGAUAUUGAGGAGACAUUUAAGACUCAGGACAUAGCUGUGAUUUCUGCCAAGCUAACAGGUAUGCAGAACAGCUUAAUGAUGCUUGUUGAU	0.127
AUAGAAUUCUGUACCCCAGUAAUCAACUAGUUUUCUAUUAAUGUGCUUGUCUGUUCUAAGAGUAGGAUUAACACAGGGGAAGUCUUGAGAAGGAGUUUUGAUUCUUUUAUAUGUUUUUAA	6.22
CCCGGGCUGCAGACGGCCCCAGCUACAGAGGCUCUAUCACCCACGGCACGCCCGCAGACGUCCUCUACAAGGGUACCAUCAGCAGGAUCGUCGGUGAGGACAGCCCAAGUCGCCUUGACC	0.0716
AAGGCAUCUUGUACGUCGUUACAUUUAUCAUAUUGGAAGUCCCUUAAGCUCCUAGGAUUUUUAGAUGUUGAAAAUACUCCCUGCGCCCGGCAUUCAAUAUUGUAUGGUUCAUUAGGAUCU	2.74
AAACCCCAGGCUGUUUCUUCAUUAAGUUCUAGUCAUUCCAGGUCUCAUGGGAAUGAUCACCAUAGCAAGGAACAUCAGCGCUCCAAAUCACCUCGGGACCCUGAUGCCAACUGGGAUUCU	0.166

Sample 4
Target: RNA binding protein fox-1 homolog 2, RRM domain, GST-SBP tag (RBFOX2, Homo sapiens, UniProt O43251-10, residues 100-194)
Technique: RNA Bind-n-Seq
Molecule type: RNA
Matrix: in vitro
Concentration: 365 nM
Notes: natural RNA segment, single round, ends assumed
Reference: no-protein control
Direction: higher = stronger binding
Shared flanks, not repeated: GGGAGUUCUACAGUCCGACGAUC … UGGAAUUCUCGGGUGCCAA
Residues (chain): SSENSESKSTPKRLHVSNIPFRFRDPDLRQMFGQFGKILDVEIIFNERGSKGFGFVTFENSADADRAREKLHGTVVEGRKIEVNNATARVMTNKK
Sequence	RBNS enrichment (R)
UCUGUCCUGGGUGGGAUGCACCGAGCUAGUCACGGGUGUCGGAUCAGAUCUUUUAAAAACACUUGUCUCAUGUAAUUGAGACCCGCCACCAUCGCAGAUGAGUGACAAGA	0.316
UUGUUGAAACAGGCCCAGAAGAACCUCAGGAGGUACCUUGGGCCCUUCCCUGCUAUCCUUUUUCUCCUUUGGAGGUGCCCAACCUCCUCCACCCCCUUCCCCUACUCUAG	0.408
UGCUCACUUCGUUAGCAUUUCUGAGCCAGAGGCUGGCUCCCUCCCGUGGGGAUCUGGGAGCUGGCACUGUGUACACCUGUCCCUGACUGUCCACGUCUCCCGUGAUUGCC	0.548
UUCAUCUGCUUCUUGGGUUUAAGCACACACCUGAAGGGGAGAUAUUGGGGGACACGGUGGCCACUCGCGGUCUGUGUCAUGACACUUCCCAUUCACAUCAUUGGCCUGCG	0.997
GGAGACAGGACAAGCCUUUCAUCUAAAAGGUGGCACAGAGCUUAAGGCCAGGGAAGAAGGUAUGAAGAAAAGGUGAUUGAGAACUAAUUACCAAGGGAAACUGGCAAGAC	0.782
UCCCCCCACUUACAUAAGUAAACCCAACAUAAGGAGGACCAUUCCUUUUCUUUCAUUCAGAUGACCUUUUUCUGAAUCUGGGCACUGAAGGGAUGCAUAAAAUAAUGUUA	0.329
GCUCUAAGAGCACUGUGCUUGGGAAAGUUGUGAUUAACAGCUUUUAAGAGGGCCCCUACCCCCAGUCCUUUGGGCAUUUUCUUUGAGCUGUUAGGUUUUGCUUUAUUUAA	0.569
UGUGGAGUGGAAUGAAAUCAAUGCUGCCUGGGGCCAGACAGUGCUGCUGCUCCAUGCUUUGGCCAAUAAGAUGGGUCUGAAGUUUCAGAGGUACCGACUUGUUCCCUAUG	0.593
UCAAGAAAAAUAAAAGAUUAUAAUCUCAGUUUAAAAUUACUAAUGUGUGACAACCAUACCUCAGUUUGAAAUAGAUUUAACAAGAUUAUUCCCUGACAUUUUCUUCCAUG	0.363
CCUUUGUGCUCUCACCCUCCACUCUGGUAAAGCUGCACCUCUGGGGGAAUGAGGGGCUGCAGGAAUCUCUGGAGAGCCUGGUGCUUCACGAUGCUGCUCUGGUGAUUCUU	0.341
AGUUACUUCCUAGAUACCAACAGGGGUACAGGUAUUGAUUAAAGACGGCUGUUCCAAAUGGGAGAAAUUGGCCAAAAUAAAGGGGUUACAGGGCCCAUGCAAGUCCGAAA	1
AUUGUCCUGUACGGUCGGUGGCAGUGCUAUUCUGAGAUCUGUAGAUGCUUAGAAUAUCAGUAUUUUGGAUGUUGCUGCAUUUUACAAUUUAUUUGGAGUCUUCCUUUAUU	2.87

Sample 5
Target: CCNE2, cyclin fold, Cln2 fusion (human)
Technique: yeast growth competition, sequencing
Matrix: yeast
Notes: weak parent motif
Reference: not given
Direction: higher = stronger binding
Parent: HASPIN docking peptide (human); ASLRSVLFGLMNS
Change	normalised enrichment score
L7A	0.584
G9A	0.603
M11A	0.918
S13A	0.538
L3A	0.0443
V6A	0.535
